Published values of several laboratories.
Values joined by “and” are separate records of one study, mostly repeats; a detail may differ. ± gives the spread as reported.

CSCC[C@H](N)C(=O)N[C@@H](C)C(=O)N[C@@H](CCCNC(=N)N)C(=O)N[C@@H](CCCNC(=N)N)C(=O)N[C@@H](CC(=O)O)C(=O)N[C@@H](CCCCN)C(=O)N[C@H](C(=O)N[C@@H](CC(=O)O)C(=O)N[C@@H](Cc1ccccc1)C(=O)N[C@@H](C)C(=O)N[C@@H](CCCNC(=N)N)C(=O)N[C@@H](CCCNC(=N)N)C(=O)N[C@@H](CCCNC(=N)N)C(=O)N[C@@H](CCCNC(=N)N)C(=O)NCCCCCC(=O)NCCCCC(NC(=O)CCCCCNC(=O)[C@H](CCCNC(=N)N)NC(=O)[C@H](CCCNC(=N)N)NC(=O)[C@H](CCCNC(=N)N)NC(=O)[C@H](CCCNC(=N)N)NC(=O)[C@H](C)NC(=O)[C@H](Cc1ccccc1)NC(=O)[C@H](CC(=O)O)NC(=O)[C@@H](NC(=O)[C@H](CCCCN)NC(=O)[C@H](CC(=O)O)NC(=O)[C@H](CCCNC(=N)N)NC(=O)[C@H](CCCNC(=N)N)NC(=O)[C@H](C)NC(=O)[C@@H](N)CCSC)[C@@H](C)O)C(=O)NCCCCC(NC(=O)C(CCCCNC(=O)CCCCCNC(=O)[C@H](CCCNC(=N)N)NC(=O)[C@H](CCCNC(=N)N)NC(=O)[C@H](CCCNC(=N)N)NC(=O)[C@H](CCCNC(=N)N)NC(=O)[C@H](C)NC(=O)[C@H](Cc1ccccc1)NC(=O)[C@H](CC(=O)O)NC(=O)[C@@H](NC(=O)[C@H](CCCCN)NC(=O)[C@H](CC(=O)O)NC(=O)[C@H](CCCNC(=N)N)NC(=O)[C@H](CCCNC(=N)N)NC(=O)[C@H](C)NC(=O)[C@@H](N)CCSC)[C@@H](C)O)NC(=O)CCCCCNC(=O)[C@H](CCCNC(=N)N)NC(=O)[C@H](CCCNC(=N)N)NC(=O)[C@H](CCCNC(=N)N)NC(=O)[C@H](CCCNC(=N)N)NC(=O)[C@H](C)NC(=O)[C@H](Cc1ccccc1)NC(=O)[C@H](CC(=O)O)NC(=O)[C@@H](NC(=O)[C@H](CCCCN)NC(=O)[C@H](CC(=O)O)NC(=O)[C@H](CCCNC(=N)N)NC(=O)[C@H](CCCNC(=N)N)NC(=O)[C@H](C)NC(=O)[C@@H](N)CCSC)[C@@H](C)O)C(N)=O)[C@@H](C)O (some centres unmarked)  tissue distribution (C57BL/6 mouse female, liver; dose not given, 3 h; baseline: total): 8.62% and 9.26% and 6.65%
CC(=O)N[C@H](C(=O)N[C@@H](CCCC(=O)OC(C)(C)C)C(=O)N[C@@H](CCC1CCCCC1)C(=O)N[C@@H](CC(=O)O)C(=O)COC(=O)c1c(C)cccc1C)C(C)(C)C  blood concentration (C57BL/6N mouse, female, whole blood; intraperitoneal, dose not given, 0.5 h): 674 µM
CC[C@H](C)[C@H](NC(=O)[C@H](CCCCN)NC(=O)CNC(=O)[C@H](CC(C)C)NC(=O)[C@H](Cc1ccccc1)NC(=O)[C@H](CCCCN)NC(=O)[C@H](CO)NC(=O)[C@H](Cc1ccccc1)NC(=O)[C@H](Cc1c[nH]c2ccccc12)NC(=O)[C@H](CCC(N)=O)NC(=O)[C@@H](NC(=O)[C@H](Cc1ccccc1)NC(=O)CCCCCNC(=O)CN1CCN(CC(=O)O)CCN(CC(=O)O)CCN(CC(=O)O)CC1)C(C)C)C(=O)N[C@@H](CCC(=O)O)C(=O)N1CCC[C@H]1C(=O)N[C@@H](CC(=O)O)C(=O)N[C@H](C(=O)N[C@@H](CO)C(=O)N[C@@H](CCC(N)=O)C(=O)N[C@H](C(=O)N[C@@H](CCC(N)=O)C(=O)N[C@@H](CC(=O)O)C(=O)N1CCC[C@H]1C(=O)N[C@@H](CC(N)=O)C(=O)N[C@@H](CC(=O)O)C(=O)N[C@@H](CCC(N)=O)C(=O)N[C@@H](Cc1ccc(O)cc1)C(=O)N[C@@H](CCC(=O)O)C(=O)N1CCC[C@H]1C(=O)N[C@@H](Cc1ccccc1)C(=O)O)C(C)C)C(C)C [copper-64 labelled]  SUVmean (dynamic PET; mouse both sexes, CT26 tumour, untreated, tumour; intravenous, 100 µCi/mouse, 150 s): 0.55 SUV
Cc1ccccc1-c1ccc(-c2nc(-c3ccc(CN(C)CCCC(=O)O)c([18F])c3)no2)cc1C(F)(F)F  tracer uptake (rat, heart; 1 h): 0.26 %ID/g
CCCCCCCCCCCCCCCC(=O)N[C@@H](CCC(=O)NCCOCCOCCC(=O)NCCOCCOCCC(=O)NCCCC[C@H](NC(=O)[C@H](CC(=O)O)NC(=O)[C@H](CC(C)C)NC(=O)[C@H](Cc1ccc(O)cc1)NC(=O)[C@H](CCCCN)NC(=O)[C@H](CO)NC(=O)[C@H](Cc1ccc(O)cc1)NC(=O)[C@H](CC(=O)O)NC(=O)[C@H](CO)NC(=O)[C@@H](NC(=O)[C@H](Cc1ccccc1)NC(=O)[C@@H](NC(=O)CNC(=O)[C@H](CCC(N)=O)NC(=O)[C@@H](CO)NC(=O)[C@@H](N)Cc1c[nH]cn1)[C@@H](C)O)[C@@H](C)O)C(=O)N[C@@H](CCCNC(=N)N)C(=O)N[C@@H](CCCNC(=N)N)C(=O)N[C@@H](C)C(=O)N[C@@H](CCC(N)=O)C(=O)N[C@@H](CC(=O)O)C(=O)N[C@@H](Cc1ccccc1)C(=O)N[C@H](C(=O)N[C@@H](CCC(N)=O)C(=O)N[C@@H](Cc1c[nH]c2ccccc12)C(=O)N[C@@H](CC(C)C)C(=O)N[C@@H](CC(C)C)C(=O)N[C@@H](CC(N)=O)C(=O)N[C@H](C(=O)NCC(=O)NCC(=O)N1CCC[C@H]1C(=O)N[C@@H](CO)C(=O)N[C@@H](CO)C(=O)NCC(=O)N[C@@H](C)C(=O)N1CCC[C@H]1C(=O)N1CCC[C@H]1C(=O)N1CCC[C@H]1C(=O)N[C@@H](CO)C(N)=O)[C@@H](C)O)C(C)C)C(=O)O  total cholesterol (rhesus monkey, female; subcutaneous, 300 µg/kg once daily, 28 days): 2.16 ± 0.8 mmol/L
CC1COC2=C1C(=O)C(=O)c1c2ccc2c1C(OC(=O)CNC(=O)C(N)CO)CCC2(C)C (mixture of isomers)  equilibrium solubility (saline with 20% PEG 400; 24 h, 25 °C): 904 µg/mL
CCCC/C=C/C(=O)N[C@@H](Cc1csc2ccccc12)C(=O)N[C@H]1COC(=O)[C@@H]2C[C@@H](C)CN2C(=O)[C@H](C)NC(=O)[C@@H]2CCCCN2C(=O)[C@@H]2CCCN2C1=O  cytotoxicity (LDH release; human ESC-derived lung organoids; concentration not given, 3 days): 2.78% and 1.92% and 3.45%
C#Cc1c(F)ccc2cc(O)cc(-c3ncc4c(N5CC6CCC(C5)N6C(=O)OC(C)OC(=O)C5CCOC5)nc(OC[C@@]56CCCN5C[C@H](F)C6)nc4c3F)c12 (some centres unmarked)  compound remaining (chemical stability; simulated intestinal fluid; 1 µM, 30 min): 83.5%
C[C@H](O)[C@@H](NC(=O)[C@H]1CCCN1C(=O)[C@@H](CCCCN)NC(=O)[C@@H](CO)NC(=O)[C@@H](Cc1ccc(O)cc1)NC(=O)[C@@H](CC(N)=O)NC(=O)CCOCCOCCOCCNC(=O)CN1CCN(CC(=O)O)CCN(CC(=O)O)CCN(CC(=O)O)CC1)C(=O)N[C@H](CC(=O)O)C(=O)N[C@H](CCCNC(=N)N)C(=O)N[C@H](CCC(N)=O)C(=O)N[C@H](Cc1ccc(O)cc1)C(=O)N[C@H](Cc1c[nH]cn1)C(=O)N[C@H](Cc1ccccc1)C(N)=O [gallium-68 labelled]  tissue uptake (BALB/c nude mice U-87 MG tumour, brain; intravenous, 1.85 MBq, 1 h, radiolabelled): 0.03 ± 0.01 %ID/g
C=C/C=C/C[C@@H](C)[C@@H](O)[C@H]1C(=O)N[C@@H](CC)C(=O)N(C)CC(=O)N(C)[C@@H](CC(C)C)C(=O)N[C@@H](C(C)C)C(=O)N(C)[C@@H](CC(C)C)C(=O)N[C@@H](C)C(=O)N[C@H](C)C(=O)N(C)[C@@H](CC(C)C)C(=O)N(C)[C@@H](CC(C)C)C(=O)N(C)[C@@H](C(C)C)C(=O)N1C  food intake (rat, Wistar Kyoto, male; intraperitoneal, 0.5 mg/kg/day, day 18): 19.5 ± 1.6 g/24 h
CC[C@H](C)[C@H](NC(=O)[C@H](CCCN)NC(=O)[C@H](CCCNC(=N)N)NC(=O)[C@@H]1CCCN1C(=O)[C@@H]1CCCN1C(=O)[C@H](CCCNC(=N)N)NC(=O)[C@@H]1CCCN1C(=O)[C@H](CCCNC(=N)N)NC(=O)[C@@H]1CCCN1C(=O)[C@H](CC(C)C)NC(=O)[C@H](Cc1ccc(O)cc1)NC(=O)[C@@H]1CCCN1C(=O)[C@@H]1CCCN1C(=O)[C@H](CCCCN)NC(=O)[C@H](CC(=O)O)NC(=O)[C@@H](N)C(C)C)C(=O)N[C@@H](Cc1ccc(O)cc1)C(=O)N[C@@H](CC(N)=O)C(=O)N[C@@H](CCCN)C(N)=O  clearance (competitive ELISA; mouse CD-1, female, plasma; subcutaneous, 4.34 µmol/kg): 0.76 mL/min
COc1cnc2cccc(N3CCc4c(cc(Cn5ccnc5)cc4-c4cn(C)nc4C(F)(F)F)C3=O)c2c1  body weight (BALB/c nude mice, MV4-11 xenograft; intraperitoneal, 75 mg/kg, day 14): 22.2 g and 23 g and 22.8 g and 25.5 g and 22.7 g
N=C(N)NCCC[C@@H](NC(=O)[C@H](N)Cc1c[nH]c2ccccc12)C(=O)N[C@H](CCCCN)C(=O)N[C@H](Cc1c[nH]c2ccccc12)C(=O)N[C@H](CCCNC(=N)N)C(=O)N[C@H](CCCCN)C(=O)N[C@H](Cc1c[nH]c2ccccc12)C(=O)N[C@H](CCCNC(=N)N)C(=O)N[C@H](CCCCN)C(=O)N[C@H](Cc1c[nH]c2ccccc12)C(=O)N[C@H](CCCNC(=N)N)C(=O)N[C@H](CCCCN)C(N)=O  organ index (mouse, heart; intravenous, 40 mg/kg single dose, 7 days): 0.495
CC[C@H](C)[C@H](NC(=O)[C@H](CC(C)C)NC(=O)[C@H](CC(N)=O)NC(=O)CNC(=O)[C@H](CO)NC(=O)[C@H](CC(C)C)NC(=O)[C@@H](NC(=O)[C@H](CC(C)C)NC(=O)[C@H](CCC(N)=O)NC(=O)[C@]1(C)CCCC=CCCC[C@](C)(NC(=O)[C@@H]2CCCN2C(=O)[C@H](CC(=O)O)NC(C)=O)C(=O)N[C@@H](CCCNC(=N)N)C(=O)N[C@@H](CC(C)C)C(=O)N[C@@H](CC(C)C)C(=O)N1)C(C)C)C(=O)N[C@@H](CCCCN)C(=O)N[C@@H](CCC(=O)O)C(=O)N[C@@]1(C)CCCC=CCCC[C@@](C)(C(=O)N[C@@H](Cc2c[nH]cn2)C(=O)N[C@@H](CO)C(=O)N[C@@H](CCCNC(=N)N)C(N)=O)NC(=O)[C@H](CCCNC(=N)N)NC(=O)[C@H](CCCNC(=N)N)NC(=O)[C@H](C(C)C)NC1=O  serum concentration (LC-MS; C57BL/6J mouse, serum; subcutaneous, 5 mg/kg, multiple doses, 0.5 h): 68.5 ± 10.4 ng/mL
CC(C)[C@@H]1NC(=O)CNC(=O)[C@H](CC(N)=O)NC(=O)[C@H](CCCNC(=N)N)NC(=O)[C@H](Cc2ccc(O)cc2)NC(=O)[C@H](C(C)C)NC(=O)[C@@H](NC(=O)[C@@H](NC(=O)[C@H](CC(N)=O)NC(=O)[C@H](Cc2c[nH]c3ccccc23)NC(=O)[C@H](C)NC(=O)[C@H](Cc2ccccc2)NC(=O)CNC(=O)[C@H](CCCCN)NC(=O)[C@H](Cc2ccccc2)NC(=O)[C@H](Cc2ccccc2)NC(=O)[C@H](CCCCN)NC(=O)OCC2c3ccccc3-c3ccccc32)C(C)C)CSSC[C@@H](C(=O)N[C@@H](Cc2c[nH]cn2)C(=O)N[C@@H](CCCNC(=N)N)C(=O)N[C@@H](CCCNC(=N)N)C(=O)N[C@@H](C)C(=O)N[C@@H](CC(N)=O)C(N)=O)NC(=O)[C@H](C(C)C)NC(=O)[C@H](CCCNC(=N)N)NC1=O  ALT (ICR mouse, blood; intramammary, 5 mg/kg, day 5, 3 d dosing): 47.6 ± 2.8 IU/L
O=C1NC2(CC2)COc2ncc(F)cc2[C@H]2COCCN2c2ccn3ncc1c3n2  basophil percentage (Sprague-Dawley rats, male, blood; oral, 2.5 mg/kg/day, end of recovery, 4-week subacute toxicity): 0.08 ± 0.04%
CC(C)N1CCCCC1C(=O)NC(Cc1ccc(-c2ccccc2)cc1)B(O)O (centres unmarked)  clearance (rat, plasma; intravenous, 1 mg/kg): 14.5 mL/min/kg
